Experimental data from different studies.
Every numbered part comes from another study and shows a few of its results, in no order. Substitutions count along the parent as printed.

Block 1
Target: CCND1, cyclin fold, Cln2 fusion (human)
Technique: yeast growth competition, sequencing
Sample: yeast
Notes: weak parent motif
Relative to: not given
Direction: higher = stronger binding
Parent: SLBP docking peptide (human); ARYKRKLLINDFG
Under “normalised enrichment score”, `N10P` is recorded as 0.0378.
For `L7E`, “normalised enrichment score” read -0.469.
Under “normalised enrichment score”, `L7N` is recorded as 0.229.
`A1K` — result for “normalised enrichment score”: -0.902.
`L8Q` — result for “normalised enrichment score”: 0.0313.
Under “normalised enrichment score”, `R2E` is recorded as 0.417.
`G13W`: “normalised enrichment score” 0.0514.
`R5T` — result for “normalised enrichment score”: -0.155.
Under “normalised enrichment score”, `R2I` is recorded as 0.358.
Under “normalised enrichment score”, `L8I` is recorded as -0.0815.
For `L7Y`, “normalised enrichment score” read -0.176.
`K4G`: “normalised enrichment score” -0.229.
Under “normalised enrichment score”, `D11M` is recorded as 1.35.
Under “normalised enrichment score”, `K4A` is recorded as -0.16.
`R5S`: “normalised enrichment score” 0.712.
`R2V` — result for “normalised enrichment score”: -0.138.
`R5Y` — result for “normalised enrichment score”: -0.0901.
For `G13D`, “normalised enrichment score” read -0.375.
Under “normalised enrichment score”, `F12I` is recorded as 0.0662.
`A1N` — result for “normalised enrichment score”: 0.181.
`F12K` — result for “normalised enrichment score”: -0.185.
Under “normalised enrichment score”, `Y3T` is recorded as -0.289.
`G13M`: “normalised enrichment score” 0.265.
For `D11V`, “normalised enrichment score” read 0.515.
Under “normalised enrichment score”, `L8F` is recorded as 0.16.

Block 2
Target: Sal-like protein 4, full length isoform B (SALL4, Homo sapiens, UniProt Q9UJQ4-2, residues 1-616)
Technique: universal PBM
Form: double-stranded DNA, one strand shown
Sample: in vitro
Tested at: not given
Notes: 8-mer, flanks averaged, mean of replicates
Direction: higher = stronger binding
For `GGGATTCA`, the E-score was -0.204.
For `CCTCGCTA`, the E-score was -0.171.
`CCCGCGAA` gave an E-score of -0.109.
For `GTAATCGA`, the E-score was 0.0677.
For `AGCTGGCG`, the E-score was -0.342.
The E-score of `AAGCACTA` is reported as 0.093.
With `GTCCTATA` the E-score was 0.0453.
The E-score of `GTGGTCCA` is reported as -0.207.
For `CGTAATCC`, the E-score was -0.065.
For `ACGTGCCC`, the E-score was -0.221.
`AAACAGCC` has an E-score of -0.173.
For `CATAACCA`, the E-score was 0.263.
The E-score of `AGTTAGGG` is reported as -0.175.
The E-score of `AGTCGGCA` is reported as -0.161.
The E-score of `CACAAGAG` is reported as 0.0215.
With `AGGATGCA` the E-score was -0.229.
The E-score of `CCTTGATA` is reported as 0.219.
The E-score of `ATCGTAAG` is reported as 0.0634.
`ACGTTCCT` has an E-score of 0.0974.

Block 3
Target: RING finger protein unkempt homolog, zinc fingers 1-6, SBP tag (UNK, Homo sapiens, UniProt Q9C0B0, residues 30-357)
Chain of UniProt Q9C0B0 (30-357, looked up): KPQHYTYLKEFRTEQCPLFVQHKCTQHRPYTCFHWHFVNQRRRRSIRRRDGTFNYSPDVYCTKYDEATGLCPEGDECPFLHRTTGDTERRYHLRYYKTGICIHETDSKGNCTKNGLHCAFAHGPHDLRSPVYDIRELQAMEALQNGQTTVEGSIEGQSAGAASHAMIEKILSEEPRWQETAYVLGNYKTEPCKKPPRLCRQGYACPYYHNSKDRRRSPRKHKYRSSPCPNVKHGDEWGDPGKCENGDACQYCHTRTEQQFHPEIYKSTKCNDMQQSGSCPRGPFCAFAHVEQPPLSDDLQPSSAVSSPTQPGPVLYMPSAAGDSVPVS
Technique: RNA Bind-n-Seq
Form: RNA
Sample: in vitro
Tested at: 100 nM
Notes: RNA with constant flanks, vertebrate orthologous sites, ends assumed
Relative to: input RNA pool
Direction: higher = stronger binding
The bound/input enrichment of `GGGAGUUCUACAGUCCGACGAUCCUUGCACCUCCUGGACCUUGGCUCUCCAGCUGUGGCUGUAGAGGCUGAGCUUCUUUUCUUUGAGUUUUCCCUGCUUCCUGCCUUCUGCUCCCCAUCCCAAGGUCUGACUCAUGGAGUUACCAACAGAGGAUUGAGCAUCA` is reported as 0.284 ratio.
The bound/input enrichment of `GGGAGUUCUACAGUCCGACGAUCGGGCGGCUGGUGGGGGAAUCCCCUGCCUUGGCCUUGCCUCUCCUUCCUGCCACGUGCCCCUAGUUAUUUUUUUUUUUUAACACCAUGUGAUUAAGGUCGGCGCUGCCUCCCCCGACCCACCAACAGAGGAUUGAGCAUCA` is reported as 2.49 ratio.
The bound/input enrichment of `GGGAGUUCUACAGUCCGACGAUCAGGCGUUUACUGCUCAGGUUUAUUUUAAAUGACUAUCAGUCACAUCUAAUUUAUUAUGAAUAUGGUGGUCUUUAAAAUAUGUAUUAUUGAAAUAAUAGUCAAGUUUCUAAUAAUCUAAACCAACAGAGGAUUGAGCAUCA` is reported as 0.399 ratio.
With `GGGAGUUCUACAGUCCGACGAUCGUUGGGUCAUGACCCCUAUAGGUUAGGCCAUGAUGCUUACAGGUUAGGACAGGACCCCUACAGAUUAGGCCAUGAUCCCUACAGACUAACUCCUGAUCCCUAUAGGAUGUCACCCAGACCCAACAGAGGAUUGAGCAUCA` the bound/input enrichment was 0.614 ratio.
`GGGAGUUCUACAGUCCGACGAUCAAUCAGUAGAAUUACAUAAUACUAAAGUUGCAGUUGAAAGGAUAUCCAAGUAUGUGUUGGUAGUUACUAAAAGAAUUAUAGCUGUUAUUGCCUUGUAUUUAUAGCCCUUGUUUCAGGUUUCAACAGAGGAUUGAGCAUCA` has a bound/input enrichment of 0.978 ratio.
For `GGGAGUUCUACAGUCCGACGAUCUCUCUUCUCCCCUGUCCUGAUUUUAAAAGCCCUUCUUUUUUUUUUUCUUUUUUCUUUUUUUAGGCAUAUGUAGUAAUAUUAGAAACAUUUAAUUUGGGAAACUUUGAUUCUUGAAAGAGACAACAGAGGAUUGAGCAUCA`, the bound/input enrichment was 1.95 ratio.
The bound/input enrichment of `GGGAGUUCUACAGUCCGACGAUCGUGCAAGGAGAUUAUUCCAACUAGUGAAUUUAUUAACAGUAAAUUGACAGCAAAAGCAAACAGGCAGCUUCAAGAUCCUUUAGUCAUCAUGACAGGAAACAUCCCAACAUGGCUUACUGACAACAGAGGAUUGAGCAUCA` is reported as 0.853 ratio.
With `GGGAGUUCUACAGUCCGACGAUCAAGAACUCUUGCAGUCUUAGAUGUUAUAAAAAAUAUGUAUAUCUGAAUUGUAAGAGUUGUUAGCACAGGUUUUUUUUUUUUUUUUUUAAGCACUUGUUUUGGGUACAAGGCAUGUCUGAACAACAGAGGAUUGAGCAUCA` the bound/input enrichment was 1.1 ratio.
`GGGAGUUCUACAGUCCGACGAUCAGGAAAUGCUUGCUGCAAACCCUCAGGAUCGUCCAGAUGCUUUUGAACUAGAACUCAGAUUAGUACAAAUUGCAUUUAAAGAUAGCAGCUGGGAAACGUGACACAUAUAUUGUUUGCAAACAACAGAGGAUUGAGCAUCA` gave a bound/input enrichment of 0.9 ratio.
With `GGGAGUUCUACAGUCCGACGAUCUUCAAGUUCAUCUCUCAUAUGUCAAAAAUGGCUUCAAAUUUUUCAAUGACUAGUUUUAAUUAGCUCUGCCCUCGUGAAGUACAUUUAUAAUUCACCUCAAACAGAUUUGCCUGAGUUACUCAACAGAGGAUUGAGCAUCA` the bound/input enrichment was 1.08 ratio.
The bound/input enrichment of `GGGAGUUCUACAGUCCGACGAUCAAAUUUAUUUCAUGCCCUGGACUCCCUAUCGUACUGAUACUUUAACAGAAUAUGCUUCCUUAGAAGAUUUCCAAAAUAGUCGCCAAACGACGACAUACAAACUUCCAAAUCGAGUAGAUGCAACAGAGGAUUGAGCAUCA` is reported as 0.752 ratio.

Block 4
Target: RNA binding protein fox-1 homolog 2, RRM domain, GST-SBP tag (RBFOX2, Homo sapiens, UniProt O43251-10, residues 100-194)
Technique: RNA Bind-n-Seq
Form: RNA
Sample: in vitro
Tested at: 365 nM
Notes: natural RNA segment, single round, ends assumed
Relative to: no-protein control
Direction: higher = stronger binding
Target sequence (chain): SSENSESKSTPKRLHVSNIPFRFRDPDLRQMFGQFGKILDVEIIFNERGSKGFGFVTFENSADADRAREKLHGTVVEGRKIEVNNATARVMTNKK
Under “RBNS enrichment (R)”, `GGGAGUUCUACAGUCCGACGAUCGAGGUCAGGGUCAAUGGGAAUCUGCUCGGACACUCAACAUGGGGGUGGGUGCACUCCUUGGAGGAGGAGGAACACGUUCAGGGGAUUGUGAGGUCUUGCACAAGCCACGUUGGAAUUCUCGGGUGCCAA` is recorded as 0.939.
`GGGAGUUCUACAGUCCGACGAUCUUAAUGCUUAGGAAGCCCAUUUGCAAACACUCAGUGAAGAGACACUUAAGUUUAAAAUAAAGCUUUUUAUACUGUAGCUUGAACUGUUUACCAUACAUUCUUUUGUAGUAUGGAAUUCUCGGGUGCCAA`: “RBNS enrichment (R)” 0.544.
For `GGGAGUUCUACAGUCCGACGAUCAAAUACAUUUCUUAAGGUUAAAAGCAUGCACUUCCAUGCAUACUUGCUUUUGGGGAGAGUGGGGAGAAGACAUUCUAAUAAUCAGUUUGUGAAAUAGCUUCUGUUGGAAAUGGAAUUCUCGGGUGCCAA`, “RBNS enrichment (R)” read 0.65.
Under “RBNS enrichment (R)”, `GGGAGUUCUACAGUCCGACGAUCCGGGAUUAGCUUAGACAUCCUUGCAAAGCGAUCACUUUCAAUAAAUUGGGAAAUUGCUGCUCCAGCAAUGCCUCCUGCGUCUCAGAUGAUCCUUCCUCCGGCCUCGCCUGUGGAAUUCUCGGGUGCCAA` is recorded as 0.269.
For `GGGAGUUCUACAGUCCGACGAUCCCAUGGGAACCAGCCUGGGCCCUAGUGGAGGGUCCUGGUAGCUGCAGACCAGAGCCUCACACCUCUGGGUUGGGUGUGGAGGAAGAGGGGUACUGAGUUCCCUGGUCCUUUGGAAUUCUCGGGUGCCAA`, “RBNS enrichment (R)” read 0.467.
`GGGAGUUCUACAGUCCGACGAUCAGUUUAAAAAUCAAAAUGUUAACACAAAGCUAAGAUUCAUCAGAGCCCACCCUAUUCUAAGGAACCACAAUAACUUACUCUGGCCCCAGUGUUAAAACGAUCUUUCAGAUUGGAAUUCUCGGGUGCCAA`: “RBNS enrichment (R)” 0.359.
Under “RBNS enrichment (R)”, `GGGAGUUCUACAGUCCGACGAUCUGAGACCGGUCUGUGGCUGUGGGCCCCUUGGUGACCCGCUGCUCUUUUGGAAAUGGGUGACCUGAAGUGACACUUUUUCCACAAUUAACCCAAGUUGUGUUAAUACUUCAUGGAAUUCUCGGGUGCCAA` is recorded as 0.213.
`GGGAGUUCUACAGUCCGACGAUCGAUCAGAGGUGUGCACCACCACUGCCCAGCUUGAAGUGUGUCAUUUAAAACCACUGUUUAAUAACCCUACAGACAUGAAUCUGGAUAAUGCUAGGUAUAAACUUGUGGCAUGGAAUUCUCGGGUGCCAA` — result for “RBNS enrichment (R)”: 1.04.
`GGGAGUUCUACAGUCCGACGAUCACAGUCGUUGUUUGAAUCACCCGACUUCAGCAAGAUUACUGGCAAACCCGUGAAGCUCACCCAAGUGGAACACAGGGCUGCUUUCGAGUGGAAUGAAGAGGGGGCAGGAAUGGAAUUCUCGGGUGCCAA`: “RBNS enrichment (R)” 2.21.
Under “RBNS enrichment (R)”, `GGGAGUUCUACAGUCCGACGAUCCAAUGGAGCAAAGACUCCUGCUAGGCCCUGGUCUCCCUGGGGUUUAUCCCUCCUGGGUCAUGGGAAAAGUCAGUCUCCACAUUACAGAUCACUUCCAGAGGGAGGCUGGAUGGAAUUCUCGGGUGCCAA` is recorded as 0.35.
For `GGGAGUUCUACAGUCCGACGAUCGGAUGUUUCCCUCACUGUGUUCUCUUCGUGGGUUGUUUCCUUGUGGGUCAUAGUCAUACCUUCUGAUGAGGUGGAGCCAACACCAGCAAAGUAUGAUGGCCCUGUAGCCUUGGAAUUCUCGGGUGCCAA`, “RBNS enrichment (R)” read 0.965.
`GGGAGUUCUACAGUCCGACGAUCCCCUUCUGGUAGAUUUUAAUGAUGCCAUUUUUCCAAAGCCCCCACUGUAAGGUUUCAAAAGCACUGGUAGGCAUAGCAUAGAUGUUCCAGUUACACACUCAGUAAACACUUGGAAUUCUCGGGUGCCAA` — result for “RBNS enrichment (R)”: 0.664.

Excerpt of the above (block 1):
Under “normalised enrichment score”, `F12I` is recorded as 0.0662.
Under “normalised enrichment score”, `L7N` is recorded as 0.229.
Under “normalised enrichment score”, `N10P` is recorded as 0.0378.
Under “normalised enrichment score”, `L8I` is recorded as -0.0815.
Under “normalised enrichment score”, `R2E` is recorded as 0.417.
`G13W`: “normalised enrichment score” 0.0514.
`G13M`: “normalised enrichment score” 0.265.
Under “normalised enrichment score”, `Y3T` is recorded as -0.289.
